Measured values of several laboratories.
Each numbered part is a random draw from the data of one study; scales do not carry over between parts. Positions count from the first letter of the parent shown.

Block 1
Target: Probable WRKY transcription factor 50, DNA-binding domain (WRKY50, Arabidopsis thaliana, UniProt Q8VWQ5, residues 99-173)
Method: DNA-protein interaction ELISA
Molecule type: double-stranded DNA, one strand shown
Sample: in vitro, bacterial lysate
Tested at: not given
Notes: whole dsDNA probe, crude lysate protein
Baseline: highest signal in screen
Direction: higher = stronger binding
Residues (chain): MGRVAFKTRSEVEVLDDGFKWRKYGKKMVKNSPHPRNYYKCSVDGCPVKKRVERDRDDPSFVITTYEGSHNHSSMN
Oligonucleotide	relative absorbance
AAAAAAGTCTAAGGACTTATAGCTGTAAAA	82.2 % of maximum
AAAAAAATCACGGTTCGACCTCCAGCAAAA	12.4 % of maximum
AAAAAATATCTGATCCAATTTAGGTCAAAA	20.1 % of maximum
AAAAAACATAACCGCAAAATCCCTACAAAA	9.13 % of maximum
AAAAAAGAGAATTGTCAGTGCCCAACAAAA	30.7 % of maximum
AAAAAATTAGACGCTACACTTACGGTAAAA	10.8 % of maximum
AAAAAATCGGGGATCCGGGCGGTTGCAAAA	20.5 % of maximum
AAAAAAGTCTGCGTCCTACCCCATTCAAAA	47.8 % of maximum

Block 2
Target: Interferon regulatory factor 3, full length, phosphomimetic (IRF3, Homo sapiens, UniProt Q14653, residues 1-427, S386D/S396D/S398D/S402D/T404D/S405D)
Method: protein-binding microarray
Molecule type: double-stranded DNA, one strand shown
Sample: in vitro
Tested at: 2540 nM top
Notes: 60-bp whole probe
Together with: salmon DNA 0.4 mg/ml
Baseline: random background probes
Direction: higher = stronger binding
Shared flanks, not repeated: GCCTAGCAC … GTCTTGATTCGCTTGACGCTGCTG
Residues (chain): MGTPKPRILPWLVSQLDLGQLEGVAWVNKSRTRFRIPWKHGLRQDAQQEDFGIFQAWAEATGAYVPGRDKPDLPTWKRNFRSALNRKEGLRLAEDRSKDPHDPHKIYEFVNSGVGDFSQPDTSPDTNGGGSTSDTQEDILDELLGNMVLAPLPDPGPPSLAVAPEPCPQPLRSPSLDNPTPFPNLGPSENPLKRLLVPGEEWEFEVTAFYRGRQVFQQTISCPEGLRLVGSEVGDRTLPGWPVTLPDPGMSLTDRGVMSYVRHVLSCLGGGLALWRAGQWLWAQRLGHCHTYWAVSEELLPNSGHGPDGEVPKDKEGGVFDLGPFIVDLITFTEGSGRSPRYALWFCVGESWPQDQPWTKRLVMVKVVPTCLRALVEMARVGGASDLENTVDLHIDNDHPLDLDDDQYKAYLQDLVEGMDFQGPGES
Oligonucleotide	fitted relative affinity
GACGATTTCTGACTGGAGACGTGCTAG	0.771 z-score
GACGGTTCCGTTTTCGGGACGTGCTAG	5.43 z-score
TTAGTTTTCGGGTATCGATTAGTGCTA	2.56 z-score
TCATTTGACTCTTTCTGACTGTGCTAG	1.26 z-score
TTAGGTTTCGACTTTCGCTTAGTGCTA	3.31 z-score
AACTTGGCAGGAGCGAATGGGTGCTAG	-0.338 z-score
TCATGTATATATTTTAAACTGTGCTAG	0.0271 z-score
TTAGGTCTCCTTTGCCTTTAGTGCTAG	0.978 z-score

Mixed results
P1: viral docking peptide; KKVKRRLFETREL; partner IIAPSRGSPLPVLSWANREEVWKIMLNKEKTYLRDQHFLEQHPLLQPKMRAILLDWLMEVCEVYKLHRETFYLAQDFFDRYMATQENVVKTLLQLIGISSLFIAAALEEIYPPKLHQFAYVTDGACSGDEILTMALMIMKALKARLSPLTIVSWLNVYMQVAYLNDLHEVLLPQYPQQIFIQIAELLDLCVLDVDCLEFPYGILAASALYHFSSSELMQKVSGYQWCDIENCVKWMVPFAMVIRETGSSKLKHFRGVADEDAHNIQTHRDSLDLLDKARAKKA
Molecule	target or system	test	system	conditions	how to read	measurement	result
PLXNB2 (Homo sapiens, UniProt O15031)	TBCD (Homo sapiens, UniProt Q9BTW9)	cross-linking MS	cell fractions	together with: DSSO	–	cross-linked residues	T244 to T877
P1 K4A	CCNE1, cyclin fold, Cln2 fusion (human)	yeast growth competition, sequencing	yeast	strong parent motif	baseline: not given, higher = stronger binding	normalised enrichment score	3.66
CCT3 (Homo sapiens, UniProt P49368)	CCT8 (Homo sapiens, UniProt P50990)	cross-linking MS	–	hits only	–	interaction screen	cross-linked
ERH (Homo sapiens, UniProt P84090)	BCLAF1 (Homo sapiens, UniProt Q9NYF8)	cross-linking MS	–	hits only	–	interaction screen	cross-linked
PSMA7 (Homo sapiens, UniProt O14818)	PSMA4 (Homo sapiens, UniProt P25789)	cross-linking MS	–	hits only	–	interaction screen	cross-linked

Some of these lines once more (block 1):
Oligonucleotide	relative absorbance
AAAAAATCGGGGATCCGGGCGGTTGCAAAA	20.5 % of maximum
AAAAAAGAGAATTGTCAGTGCCCAACAAAA	30.7 % of maximum
